Published values pooled from the literature.
Protocols differ between the studies behind these lines. Several values in a cell are separate wells, animals, samples, runs or records. ± marks the error that the study gave.
sdiA: Regulatory protein SdiA (sdiA, Escherichia coli, UniProt P07026)
UniProt P07026, sequence (whole entry, looked up): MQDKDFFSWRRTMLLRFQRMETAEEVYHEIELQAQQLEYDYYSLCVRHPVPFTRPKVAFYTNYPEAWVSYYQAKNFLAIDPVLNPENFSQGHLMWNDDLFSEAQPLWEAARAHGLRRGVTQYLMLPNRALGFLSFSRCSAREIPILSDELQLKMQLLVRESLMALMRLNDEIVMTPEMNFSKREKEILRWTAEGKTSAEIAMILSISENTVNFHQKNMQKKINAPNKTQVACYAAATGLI
KEAP1: Kelch-like ECH-associated protein 1 (KEAP1, Homo sapiens, UniProt Q14145)
UniProt Q14145, sequence (whole entry, looked up): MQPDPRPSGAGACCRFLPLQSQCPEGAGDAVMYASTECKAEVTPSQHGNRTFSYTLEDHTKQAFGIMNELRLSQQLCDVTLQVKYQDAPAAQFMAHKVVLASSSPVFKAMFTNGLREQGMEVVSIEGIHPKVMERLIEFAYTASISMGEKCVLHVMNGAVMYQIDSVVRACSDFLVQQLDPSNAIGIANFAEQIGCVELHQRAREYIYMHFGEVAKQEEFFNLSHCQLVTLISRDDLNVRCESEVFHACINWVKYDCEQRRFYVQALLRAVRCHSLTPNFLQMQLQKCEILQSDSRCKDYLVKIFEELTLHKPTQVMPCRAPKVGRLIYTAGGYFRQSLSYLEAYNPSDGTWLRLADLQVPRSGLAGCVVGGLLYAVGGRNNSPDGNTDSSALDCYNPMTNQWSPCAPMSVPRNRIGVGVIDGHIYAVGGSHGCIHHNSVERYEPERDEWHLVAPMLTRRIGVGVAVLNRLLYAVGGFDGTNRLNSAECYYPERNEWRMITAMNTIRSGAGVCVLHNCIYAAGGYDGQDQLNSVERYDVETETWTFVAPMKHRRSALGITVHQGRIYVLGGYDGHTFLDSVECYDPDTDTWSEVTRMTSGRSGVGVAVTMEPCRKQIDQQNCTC
AVPR1A: Vasopressin V1a receptor (AVPR1A, Homo sapiens, UniProt P37288)
UniProt P37288, sequence (whole entry, looked up): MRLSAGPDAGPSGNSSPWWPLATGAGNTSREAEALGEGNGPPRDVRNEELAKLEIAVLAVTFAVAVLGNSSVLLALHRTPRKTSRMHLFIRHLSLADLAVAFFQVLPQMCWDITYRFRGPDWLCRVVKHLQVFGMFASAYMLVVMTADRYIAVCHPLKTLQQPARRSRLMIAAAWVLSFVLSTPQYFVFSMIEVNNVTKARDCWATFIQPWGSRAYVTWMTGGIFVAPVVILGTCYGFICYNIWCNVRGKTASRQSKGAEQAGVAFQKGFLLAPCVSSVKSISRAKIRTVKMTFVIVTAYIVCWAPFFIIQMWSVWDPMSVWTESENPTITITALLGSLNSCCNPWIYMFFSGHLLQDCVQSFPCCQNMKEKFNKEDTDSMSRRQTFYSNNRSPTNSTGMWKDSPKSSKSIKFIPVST
Pnpla8: Pnpla8 (Mus musculus, UniProt Q8K1N1)
UniProt Q8K1N1, sequence (whole entry, looked up): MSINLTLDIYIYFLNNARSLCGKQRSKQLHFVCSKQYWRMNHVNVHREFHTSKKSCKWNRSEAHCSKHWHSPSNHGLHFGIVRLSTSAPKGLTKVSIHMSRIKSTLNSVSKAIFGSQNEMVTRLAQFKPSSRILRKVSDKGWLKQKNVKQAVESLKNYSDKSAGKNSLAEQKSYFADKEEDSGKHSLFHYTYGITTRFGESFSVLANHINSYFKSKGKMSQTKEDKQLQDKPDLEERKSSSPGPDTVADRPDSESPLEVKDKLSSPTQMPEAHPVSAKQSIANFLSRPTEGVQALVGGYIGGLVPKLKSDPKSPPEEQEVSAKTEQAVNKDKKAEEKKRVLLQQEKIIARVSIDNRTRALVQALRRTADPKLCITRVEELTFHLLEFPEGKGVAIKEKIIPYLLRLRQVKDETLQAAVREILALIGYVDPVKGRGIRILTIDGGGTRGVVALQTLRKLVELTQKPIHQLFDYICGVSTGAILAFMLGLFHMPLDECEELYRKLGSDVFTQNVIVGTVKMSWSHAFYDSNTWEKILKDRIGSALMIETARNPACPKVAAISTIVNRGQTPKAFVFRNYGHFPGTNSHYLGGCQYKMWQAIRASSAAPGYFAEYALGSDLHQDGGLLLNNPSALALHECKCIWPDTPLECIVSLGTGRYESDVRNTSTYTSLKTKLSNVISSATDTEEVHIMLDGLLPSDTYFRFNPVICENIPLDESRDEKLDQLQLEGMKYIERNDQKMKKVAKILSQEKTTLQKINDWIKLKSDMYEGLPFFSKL
lasR: Transcriptional activator protein LasR (lasR, Pseudomonas aeruginosa, UniProt P25084)
Oprm1: Mu-type opioid receptor (Oprm1, Rattus norvegicus, UniProt P33535)
UniProt P33535, sequence (whole entry, looked up): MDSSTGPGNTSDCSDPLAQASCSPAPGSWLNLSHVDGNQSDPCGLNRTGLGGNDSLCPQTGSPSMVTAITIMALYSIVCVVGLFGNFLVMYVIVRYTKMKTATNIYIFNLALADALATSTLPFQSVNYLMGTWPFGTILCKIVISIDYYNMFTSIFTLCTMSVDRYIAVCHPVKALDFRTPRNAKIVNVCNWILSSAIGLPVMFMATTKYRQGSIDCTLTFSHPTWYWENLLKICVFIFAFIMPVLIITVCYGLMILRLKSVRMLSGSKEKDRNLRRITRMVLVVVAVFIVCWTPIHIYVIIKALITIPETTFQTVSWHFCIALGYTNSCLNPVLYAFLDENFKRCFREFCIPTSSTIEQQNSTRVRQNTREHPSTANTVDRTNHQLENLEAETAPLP
Uncharacterized hydrolase SAUSA300_2518: Uncharacterized hydrolase SAUSA300_2518 (Staphylococcus aureus, UniProt Q2FDS6)
UniProt Q9UM07, sequence (whole entry, looked up): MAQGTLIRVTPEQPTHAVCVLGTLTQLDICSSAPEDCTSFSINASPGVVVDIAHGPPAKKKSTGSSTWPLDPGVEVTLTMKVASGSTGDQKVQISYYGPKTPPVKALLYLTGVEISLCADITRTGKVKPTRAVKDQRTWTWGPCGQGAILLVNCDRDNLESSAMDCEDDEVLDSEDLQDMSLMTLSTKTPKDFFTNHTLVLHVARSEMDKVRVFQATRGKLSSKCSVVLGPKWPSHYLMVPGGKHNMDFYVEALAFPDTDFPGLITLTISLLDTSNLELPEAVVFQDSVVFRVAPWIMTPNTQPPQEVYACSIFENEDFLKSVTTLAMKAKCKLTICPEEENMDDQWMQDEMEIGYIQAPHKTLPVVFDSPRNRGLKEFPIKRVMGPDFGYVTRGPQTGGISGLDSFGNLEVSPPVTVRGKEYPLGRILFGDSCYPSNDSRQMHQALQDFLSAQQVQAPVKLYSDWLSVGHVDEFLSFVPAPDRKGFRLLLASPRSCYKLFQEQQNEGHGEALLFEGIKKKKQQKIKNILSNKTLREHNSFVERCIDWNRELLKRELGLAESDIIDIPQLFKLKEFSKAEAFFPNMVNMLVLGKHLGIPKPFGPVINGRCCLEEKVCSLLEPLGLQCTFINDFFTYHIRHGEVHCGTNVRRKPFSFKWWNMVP
UniProt Q9UH17, sequence (whole entry, looked up): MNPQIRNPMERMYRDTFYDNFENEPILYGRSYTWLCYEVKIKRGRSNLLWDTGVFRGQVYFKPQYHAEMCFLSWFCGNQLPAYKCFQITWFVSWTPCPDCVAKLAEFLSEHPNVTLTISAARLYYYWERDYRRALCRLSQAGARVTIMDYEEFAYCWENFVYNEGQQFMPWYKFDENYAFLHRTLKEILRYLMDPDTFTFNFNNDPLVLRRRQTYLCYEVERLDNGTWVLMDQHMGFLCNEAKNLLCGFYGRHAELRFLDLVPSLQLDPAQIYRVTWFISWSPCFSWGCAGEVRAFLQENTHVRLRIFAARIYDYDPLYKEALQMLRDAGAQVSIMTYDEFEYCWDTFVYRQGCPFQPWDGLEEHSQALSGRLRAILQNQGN
UniProt P22455, sequence (whole entry, unmodified, looked up): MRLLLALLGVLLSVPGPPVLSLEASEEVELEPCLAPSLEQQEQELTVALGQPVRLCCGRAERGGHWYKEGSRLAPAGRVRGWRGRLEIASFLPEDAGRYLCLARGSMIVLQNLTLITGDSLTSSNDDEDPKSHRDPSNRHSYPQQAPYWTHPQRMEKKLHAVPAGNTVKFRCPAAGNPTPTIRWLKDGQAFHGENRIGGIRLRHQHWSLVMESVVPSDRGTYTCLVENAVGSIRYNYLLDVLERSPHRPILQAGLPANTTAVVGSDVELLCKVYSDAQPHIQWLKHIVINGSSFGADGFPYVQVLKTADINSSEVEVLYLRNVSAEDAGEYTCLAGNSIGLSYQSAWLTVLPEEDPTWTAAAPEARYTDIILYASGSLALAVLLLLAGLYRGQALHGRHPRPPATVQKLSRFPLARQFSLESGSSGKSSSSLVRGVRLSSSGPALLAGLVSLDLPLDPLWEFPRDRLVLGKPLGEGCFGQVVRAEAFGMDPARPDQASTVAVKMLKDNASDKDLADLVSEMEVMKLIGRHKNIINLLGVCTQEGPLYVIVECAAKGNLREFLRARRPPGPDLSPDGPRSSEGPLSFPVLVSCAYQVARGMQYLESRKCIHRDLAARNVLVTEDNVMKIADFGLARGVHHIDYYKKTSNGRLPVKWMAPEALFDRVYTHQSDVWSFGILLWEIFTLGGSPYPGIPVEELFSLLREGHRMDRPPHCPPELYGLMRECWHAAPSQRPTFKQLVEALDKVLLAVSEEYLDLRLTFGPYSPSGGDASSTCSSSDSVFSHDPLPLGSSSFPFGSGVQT
UniProt Q8NG66, sequence (whole entry, looked up): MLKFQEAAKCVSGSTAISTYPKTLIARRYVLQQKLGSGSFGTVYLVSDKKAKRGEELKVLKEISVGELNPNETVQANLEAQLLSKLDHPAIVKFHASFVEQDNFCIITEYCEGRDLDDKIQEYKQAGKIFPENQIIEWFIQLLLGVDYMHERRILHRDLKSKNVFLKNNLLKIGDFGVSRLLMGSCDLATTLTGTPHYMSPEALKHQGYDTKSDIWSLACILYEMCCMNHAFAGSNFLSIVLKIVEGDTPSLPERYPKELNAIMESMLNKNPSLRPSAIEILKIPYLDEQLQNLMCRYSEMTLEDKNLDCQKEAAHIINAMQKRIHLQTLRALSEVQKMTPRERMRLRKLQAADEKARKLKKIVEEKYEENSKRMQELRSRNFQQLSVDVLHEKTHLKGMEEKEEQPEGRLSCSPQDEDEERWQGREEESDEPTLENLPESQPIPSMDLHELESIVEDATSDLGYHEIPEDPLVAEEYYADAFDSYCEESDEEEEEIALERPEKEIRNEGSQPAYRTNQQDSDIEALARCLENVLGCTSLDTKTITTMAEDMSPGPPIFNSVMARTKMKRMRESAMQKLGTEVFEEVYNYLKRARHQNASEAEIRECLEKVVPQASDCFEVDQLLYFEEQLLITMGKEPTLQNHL

Structure (SMILES) | target | test | system | setting | how to read | quantity | value
CCCC(=O)N[C@H]1CCSC1=O | sdiA |  |  |  |  | Emax | 117%
CN(C)CCCSC(=S)N1CCN(C(=O)/C=C/c2coc3ccccc3c2=O)CC1 | Nucleoprotein (N, Tomato spotted wilt virus, UniProt P25999, R94A) | binding, microscale thermophoresis |  | 125 µM | dose series | MST response | 845 a.u.
CC(C)[C@@H]1NC(=O)[C@H](CC(N)=O)NC(=O)CNC(=O)[C@H](CC(N)=O)NC(=O)[C@H](C)NC(=O)[C@H](CC(=O)O)NC(=O)[C@H]([C@@H](C)O)NC(=O)[C@H](CCC(=O)O)NC(=O)CNC(=O)[C@H]([C@@H](C)O)NC(=O)[C@H](CCC(=O)O)NC(=O)[C@H](CCC(=O)O)NC(=O)[C@H](CC(=O)O)NC1=O | KEAP1 | Keap1-Nrf2 binding, inhibitor, competitive FP |  | 0.0061 µM, 30 min, together with: Nrf2 peptide probe | lower = stronger inhibition | fluorescence polarization | 0.98 a.u. and 1.02 a.u.
Cc1cccc(CC(=O)N[C@H]2CCOC2=O)c1 | sdiA |  |  |  |  | Emax | 88.8%
CCc1nnc(-c2c(OC)cc(-c3cnc4cc(-c5cnn(C)c5)ccn34)cc2OC)o1 | AVPR1A | agonist radioligand, radioligand binding |  | 10 µM, SafetyScreen44 V1a mean | lower = stronger displacement | remaining binding | 97.1%
CCCO[C@H]1[C@H](O)[C@@H](N)[C@@H](O[C@H]2[C@H](O[C@@H]3O[C@H](CO)[C@@H](O[C@H]4O[C@@H](CN)[C@@H](O)[C@H](O)[C@H]4N)[C@H]3O)[C@@H](O)[C@H](N)C[C@@H]2N)O[C@@H]1CO | 3',5'-cyclic-AMP phosphodiesterase 4D (PDE4D, Homo sapiens, UniProt Q08499) | cell-free assay |  | 10 µM |  | remaining signal | -1%
C#CCCCCOc1ccc2c(c1)CCCN2C(=O)CCl | Vitamin D3 receptor (VDR, Homo sapiens, UniProt P11473) | mass spectrometry profiling | H460 cell lysate | 100 µM over 10 µM, UniProt P11473 | baseline: high over low concentration | reactivity ratio | 0.901
CSCC[C@@H]1NC(=O)[C@H](Cc2ccccc2)NC(=O)[C@@H](NC(=O)[C@H](C)N)CSC(=O)[C@H](C)NC(=O)[C@H](Cc2ccccc2)NC1=O | Histidine kinase AgrC (Listeria monocytogenes, UniProt A8E0G3) | reporter gene, agonist, agr GFP reporter |  |  | baseline: native 6-mer AIP | EC50 ratio | 8 fold
CN(C)[C@H]1C[C@@]23CC[C@@]4(O2)C(=CC[C@]2(C)[C@@H](c5ccc6ccncc6c5)CC[C@H]24)C=C3[C@@H](O)[C@@H]1O | Serine/threonine-protein kinase LATS2 (LATS2, Homo sapiens, UniProt Q9NRM7) | ATP probe labelling, inhibitor, KiNativ profiling |  | 1 µM |  | inhibition | -1.4%
CC(C)[C@@H]1NC(=O)[C@H](CCC(=O)O)NC(=O)CNC(=O)[C@H]([C@@H](C)O)NC(=O)[C@H](CCC(=O)O)NC(=O)[C@H](CCC(=O)O)NC(=O)[C@H](CC(=O)O)NC(=O)[C@H](C(C)C)NC(=O)[C@H]([C@@H](C)O)NC(=O)CNC(=O)[C@H](CC(=O)O)NC(=O)[C@H](CC(N)=O)NC(=O)[C@H](Cc2ccc(O)cc2)NC1=O | KEAP1 | Keap1-Nrf2 binding, inhibitor, competitive FP |  | 0.3906 µM, 30 min, together with: Nrf2 peptide probe | lower = stronger inhibition | fluorescence polarization | 0.167 a.u. and 0.177 a.u.
CC(C)CC(O)(CC(C)C)c1cn(C(=O)N2CCCC2)nn1 | Pnpla8 | enzyme activity, inhibitor, competitive ABPP-SILAC | mouse T-cells | concentration not given, 4 h, treated in situ | baseline: DMSO | activity ratio | 1.41
CCCCCCCCCC(=O)CC(=O)Nc1ccccc1O | lasR | reporter gene, agonist | Pseudomonas aeruginosa PAO-JP2 | 100 µM, plasI-LVAgfp reporter | baseline: OdDHL at same concentration | agonist activity | 50%
N[C@H](C(=O)N1CCCC1)C1CCN(c2nccc3c(-c4ncc(Cl)cc4Cl)cccc23)CC1 | Protein-arginine deiminase type-4 (PADI4, Homo sapiens, UniProt Q9UM07) | enzyme activity |  | 0.2458 µM, high-affinity site, together with: Ca2+ 1.5 mM |  | kcat | 1.57 s⁻¹ and 1.63 s⁻¹
COc1ccccc1-c1n[nH]c2nc(N[C@H]3CC[C@H](NS(=O)(=O)CC(C)C)CC3)ncc12 | protein kinase LINJ.30.1580 | bead competition pull-down | Leishmania extract | 10 µM | baseline: vehicle | relative captured amount | 0.11
Oc1ccc(C[C@@H]2CN([C@H](Cc3ccc4ccccc4c3)CN3CCC[C@H]3CN3CCNC[C@@H]3Cc3ccc4ccccc4c3)CCN2CCc2ccc(Cl)c(Cl)c2)cc1 | Oprm1 | radioligand binding | rat brain membranes | 500 nM, pH 7.5, 25 °C, together with: 0.87 nM [3H]DAMGO |  | remaining binding | 114 ± 14.1%
C=CC(=O)Nc1cc(-c2ccc(C(=O)N3CCCC(O)(CC)C3)cc2)ccc1F (stereo not drawn) | DNA dC->dU-editing enzyme APOBEC-3B, C-terminal domain (Homo sapiens, UniProt Q9UH17) | covalent adduct, intact protein MS |  | 5 h, 20-fold excess, 500 µM |  | unmodified protein | 0% and 20%
O=C(O)c1cccc(CP(=O)(O)O)n1 | Metallo-beta-lactamase type 2 (Serratia marcescens, UniProt P52699) | enzyme activity, inhibitor |  | together with: nitrocefin |  | kon | 1330 ± 333 M⁻¹ s⁻¹

Structure (SMILES) | target | test | system | setting | how to read | quantity | value
O=C1NC(=O)c2c1c1cc(F)c[n+]3c1c1c2c2cc(O)ccc2[n]1[Ru-4]312([N]=C=S)[S+]3CC[S+]1CC[S+]2CC3 (stereo not drawn) | Protein kinase C beta type, isoform beta-II (PRKCB, Homo sapiens, UniProt P05771) | enzyme activity |  | 100 nM, human enzyme, together with: 10 µM ATP | baseline: untreated | remaining activity | 76%
CCCC[C@H]1CNCCN1C[C@@H]1CCCN1C[C@H](CC1CCCCC1)N1CCN(CCC23CC4CC(CC(C4)C2)C3)[C@H](Cc2ccc(O)cc2)C1 | Oprm1 | radioligand binding | rat brain membranes | 500 nM, pH 7.5, 25 °C, together with: 0.87 nM [3H]DAMGO |  | remaining binding | 101 ± 8.14%
O=C(N1CCCCC1)n1ccnn1 | Pnpla8 | enzyme activity, inhibitor, competitive ABPP-SILAC | mouse T-cells | concentration not given, 4 h, treated in situ | baseline: DMSO | activity ratio | 2.11
CC(C)[C@H]1NC(=O)C[C@H]2/C=C/CCSSC[C@@H](NC1=O)C(=O)N[C@H](Cc1cccc3ccccc13)C(=O)NCC(=O)O2 | Fibroblast growth factor receptor 4 (FGFR4, Homo sapiens, UniProt P22455, V550L) | enzyme activity, inhibitor |  | 10 µM |  | inhibition | 2.5%
CCOC(=O)[C@@H]1Cc2c(cc([N+](=O)[O-])cc2[N+](=O)[O-])[C@H](O)[C@]12C(=O)Nc1ccc(Br)cc12 | Dual specificity tyrosine-phosphorylation-regulated kinase 1B (DYRK1B, Homo sapiens, UniProt Q9Y463) | binding, competition with immobilised ligand |  | 0.1 µM |  | remaining binding | 99%
CCCCCCC(=O)N[C@H]1CCOC1=O | lasR | reporter gene, agonist | Escherichia coli JLD271 | 10 µM, pSC11 and pJN105L plasmids | baseline: OdDHL at same concentration | agonist activity | 3%
COc1ccccc1-c1n[nH]c2nc(NC3CCN(C(=O)Cc4ccc(F)cc4F)CC3)ncc12 | cyclin 3 (Leishmania donovani, UniProt A0A3Q8IHJ8) | competition bead pull-down, item: LINJ.30.0080 | Leishmania donovani extract | 10 µM | baseline: vehicle | remaining binding | 13%
Cc1cc(O)cc(C)c1C[C@H](N)C(=O)N[C@H](CCCNC(=N)N)C(=O)N[C@@H](Cc1ccccc1)C(=O)N[C@@H](CCCCN)C(=O)NNC(=O)[C@H](Cc1ccccc1)NC(=O)[C@H](CC1CCCCC1)NC[C@@H]1Cc2ccccc2CN1C(=O)[C@@H](N)Cc1ccc(O)cc1 | Oprm1 | binding | rat brain membranes | together with: [3H]DAMGO | baseline: Ki mu over Ki delta | selectivity ratio | 4.91
CC[C@@H](C)[C@@H]1CN([C@H](Cc2ccc3ccccc3c2)CN2CCC[C@H]2CN2CCNC[C@@H]2Cc2ccc3ccccc3c2)CCN1CCC12CC3CC(CC(C3)C1)C2 | Oprm1 | radioligand binding | rat brain membranes | 500 nM, pH 7.5, 25 °C, together with: 0.87 nM [3H]DAMGO |  | remaining binding | 103 ± 8.18%
Nc1ncnc2c1ncn2[C@@H]1O[C@H](C[C@@H](N)CC[C@H](N)C(=O)O)[C@@H](O)[C@H]1O | O-methyltransferase (Sorghum bicolor, UniProt A0A1B6PFV1, W279A) | isothermal titration calorimetry |  | W279A mutant, together with: saturating resveratrol |  | cooperativity factor | 0.53
COc1cc2c(cc1S(=O)(=O)F)C(=O)NCCC2 | Uncharacterized hydrolase SAUSA300_2518 | enzyme activity, inhibitor, fluorogenic substrate |  | 0.5 µM |  | remaining activity | 91% and 94.4% and 92.9%
O=C(NCc1cc(Br)cc(Br)c1OC(=O)c1ccccc1[N+](=O)[O-])c1ccccc1Cl | lasR | reporter gene, agonist | Pseudomonas aeruginosa PAO-JP2 | 100 µM, plasI-LVAgfp reporter | baseline: OdDHL at same concentration | agonist activity | 104%
CS(C)(=O)=Nc1ccc(-c2ccc(-c3nc4cc(O[C@@H]5CO[C@H]6[C@@H]5OC[C@H]6O)[nH]c4cc3F)cc2)cc1 | Serine/threonine-protein kinase Nek11 (NEK11, Homo sapiens, UniProt Q8NG66) | enzyme activity, inhibitor |  | 10 µM |  | inhibition | -6%
O=C(CCCOc1ccc(Cl)cc1)N[C@H]1CCOC1=O | lasR | reporter gene, agonist | Pseudomonas aeruginosa PAO-JP2 | 100 µM, plasI-LVAgfp reporter | baseline: OdDHL at same concentration | agonist activity | 3%
Cc1ccc(OS(=O)(=O)F)c(C(=O)Nc2ccncc2)c1 | Uncharacterized hydrolase SAUSA300_2518 | enzyme activity, inhibitor, fluorogenic substrate |  | 50 µM |  | remaining activity | 35% and 35.2% and 36.6%
Cc1cc(-c2ccc3ccccc3c2)nnc1NCCN1CCN(C)CC1 | AVPR1A | antagonist |  | 10000 nM | baseline: control | activity | 0%
